Assay results pooled from the literature.
Lines come from different studies, so protocols differ. ± marks the error that the study gave. *: point of attachment.
B1: FITC-labelled, Ahx spacer, C-amide; FITC = O=C1OC2(c3ccc(O)cc3Oc3cc(O)ccc32)c2ccc(NC(=S)*)cc21; Ahx = NCCCCCC(=O)O; chain {FITC-Ahx}-KKGFYKKKQCRPSKGRKRGFCW-NH2 (cysteine pairing not given here)

| Substance | cell line | test | system | setting | how to read | measurement | result |
| --- | --- | --- | --- | --- | --- | --- | --- |
| COc1cccc2c1C(=O)c1c(O)c3c(c(O)c1C2=O)C[C@@](O)(C(=O)CO)C[C@@H]3O[C@H]1C[C@H](N)[C@H](O)[C@H](C)O1 | Caco-2 | qPCR, item: mTOR | – | IC50, 24 h | baseline: untreated | mRNA level | 0.16 ± 0.002 fold |
| CC(C)C[C@H](NC(=O)[C@@H](O)[C@H](N)Cc1ccccc1)C(=O)O | U-937 | cell proliferation | – | 145 µM, day 4, together with: BSO 25 µM, 20 h preincubation | – | inhibition | 53.4 ± 4.8% |
| fMLF analogue | rabbit polymorphonuclear leukocytes | – | – | 2 x 10 to 8 M, 37 °C, 30 min release | – | pool filling half-life | 4.2 min |
| CC(=Cc1ccc(Br)o1)[N+](=O)[O-] | KB | – | – | mean of three Leishmania species | baseline: KB CC50 over Leishmania IC50 | selectivity index | 17.9 |
| O=C1OC2(c3cc(I)c(O)c(I)c3Oc3c2cc(I)c(O)c3I)c2c(Cl)c(Cl)c(Cl)c(Cl)c21 | red blood cells | bright-field and fluorescence microscopy | – | concentration not given, irradiation beyond lysis | – | ghost morphology | no effect |
| tetraglycine | MELOE-1(36-44)-specific HLA-A*0201 CD8 T cell clone | TNF-alpha production, cross-presentation by mature DC | – | synthetic long peptide | – | EC50 | 1.2 µM |
| Cc1ccc(C(=O)Nc2ccc(CN3CCN(C)CC3)c(C(F)(F)F)c2)cc1C#Cc1cnc2cccnn12 | K562 K562-WT | – | – | 48 h | – | GI50 | ~0.00015 µM |
| CN(C)c1ccc2cc(-c3cccc(F)c3)c(N)nc2c1 | mouse fibroblasts | Western blot | conditioned medium | 500 nM, 24 h, unit not given | baseline: Col1A1 | secreted Par-4 level | 66.8 ± 10.9 |
| CC1(CCCNCC(c2ccccc2)c2ccccc2)CCc2cc(O)ccc2O1 (stereo not shown) | TNBC cells | qRT-PCR | – | 15.6 µM | baseline: DMSO | Bcl-2 mRNA level | decreased |
| NNC(=O)Cn1cc(COc2ccccc2-c2nc(-c3ccccc3)no2)nn1 | Caco-2 | qPCR, item: PI3K | – | IC50, 24 h | baseline: untreated cancer cells | mRNA level | 0.43 ± 0.02 fold |
| Cc1ccccc1-c1cc2ccccc2[nH]1 | RAW264.7 | sulforhodamine B | – | 50 µM, 20 h | baseline: vehicle | viability | 31.5 ± 2.7% |
| CO[C@@H]1[C@H](O)[C@@H](COP(=O)(O)OP(=O)([O-])OP(=O)(O)OP(=O)(O)OC[C@H]2O[C@@H](n3cnc4c(=O)[nH]c(N)nc43)[C@H](O)[C@@H]2O)O[C@H]1n1c[n+](C)c2c(O)nc(N)nc21 | human immature dendritic cells | reporter gene | – | 72 h, cap on electroporated luciferase mRNA | baseline: beta-S-ARCA D1 capped mRNA | relative total luciferase expression | 0.11 ± 0.03 |
| N#Cc1c(-c2ccccc2)[nH]c2ccccc12 | RAW264.7 | sulforhodamine B | – | 50 µM, 20 h | baseline: vehicle | viability | 82.1 ± 4.1% |
| CC[C@@H]1[C@H](F)C(=O)N[C@@H]1COc1nccc2cc(C(N)=O)c(OC)cc12 | human plasmacytoid dendritic cells | – | – | 200 nM, 24 h, together with: SLE neutrophil supernatants | – | IFN-alpha release | 5.7 ± 2.5 pg/mL |
| Clc1ccc(-c2cc3ccccc3[nH]2)cc1Cl | RAW264.7 | sulforhodamine B | – | 50 µM, 20 h | baseline: vehicle | viability | 67.4 ± 2.8% |
| COC1C(O)[C@@H](COP(=O)(O)OP(=O)([S-])OP(=O)(O)OP(=O)(O)OC[C@H]2O[C@@H](n3cnc4c(=O)[nH]c(N)nc43)C(O)C2O)O[C@H]1n1c[n+](C)c2c(O)nc(N)nc21 (mixture of isomers) | human immature dendritic cells | reporter gene | – | cap on electroporated luciferase mRNA | baseline: beta-S-ARCA D1 capped mRNA | relative translation efficiency | 0.53 ± 0.17 |
| CN(C)c1ccc2cc(-c3ccccc3F)c(=O)[nH]c2c1 | mouse fibroblasts | Western blot | conditioned medium | 500 nM, 24 h, unit not given | baseline: Col1A1 | secreted Par-4 level | 33.2 ± 0.9 |
| Nc1ccccc1C#Cc1cc(F)cc(F)c1 | RAW264.7 | sulforhodamine B | – | 50 µM, 20 h | baseline: vehicle | viability | 30.8 ± 0.6% |
| COc1c(OC)c(O)c2c(=O)cc(-c3ccc(O)cc3)oc2c1OC | THP-1 | antioxidant effect, OPT fluorometric glutathione, item: GSH/(GSH + GSSG) | cell extract | – | baseline: 1 = all glutathione reduced, higher = more antioxidant | Emax of redox index | 0.93 |

| Substance | cell line | test | system | setting | how to read | measurement | result |
| --- | --- | --- | --- | --- | --- | --- | --- |
| NC(=O)Cn1cc(COc2ccccc2-c2nc(Cc3ccccc3)no2)nn1 | A549 | qPCR, item: EGFR | – | IC50, 24 h | baseline: untreated cancer cells | mRNA level | 0.23 ± 0.004 fold |
| N=C(N)NCCC[C@H](NC(=O)[C@@H]1CSSC[C@H](NC(=O)[C@H](Cc2ccc3ccccc3c2)NC(=O)[C@H](CCCNC(=N)N)NC(=O)[C@H](CCCNC(=N)N)NC(=O)CN2CCN(CC(=O)O)CCN(CC(=O)O)CC2)C(=O)N[C@@H](Cc2ccc(O)cc2)C(=O)N[C@@H](CCCNC(N)=O)C(=O)N[C@@H](CCCCN)C(=O)N[C@H](CCCCN)C(=O)N2CCC[C@H]2C(=O)N[C@@H](Cc2ccc(O)cc2)C(=O)N[C@@H](CCCNC(=N)N)C(=O)N[C@@H](CCCNC(N)=O)C(=O)N1)C(N)=O [fluorine-18 labelled] | CHO expressing CXCR4 | – | – | 15 min, 37 °C | baseline: added activity | cell uptake | 26.4 ± 0.57% |
| CC(C)=CCn1c(-c2ccccc2)cc2ccccc21 | RAW264.7 | sulforhodamine B | – | 50 µM, 20 h | baseline: vehicle | viability | 75.6 ± 4.7% |
| N=C(N)Nc1ccc(OC(=O)c2ccc(NC(=N)N)cc2)cc1 | Huntington disease fibroblasts | ATP2A1 splicing rescue | – | 48 h | – | minimal effective concentration | 100 to 300 µM |
| Nc1nc2ccccc2cc1-c1ccccc1F | mouse fibroblasts | Western blot | conditioned medium | 500 nM, 24 h, unit not given | baseline: Col1A1 | secreted Par-4 level | 82.1 ± 21.2 |
| NC(=O)Cn1cc(COc2ccccc2-c2nc(-c3ccccc3)no2)nn1 | A549 | qPCR, item: mTOR | – | IC50, 24 h | baseline: untreated cancer cells | mRNA level | 0.27 ± 0.01 fold |
| CC1(C)CC(=O)C2=C(C1)Nc1cc(C(=O)c3ccccc3)ccc1NC2c1ccc(N2CCCC2)cc1 (stereo not shown) | SH-SY5Y | cell growth or viability, MTS | – | – | – | EC50 | 12.3 µM |
| B1 | CHO pgsA-745, GAG-deficient | flow cytometry | – | 20 µM, 2 h, 37 °C, FITC-labelled peptide | baseline: wild-type CHO-K1 | cellular uptake | < 20% |
| COc1ccc(-c2cc3ccccc3[nH]2)cc1 | RAW264.7 | NO release, inhibitor, Griess | – | 50 µM, 20 h, LPS-stimulated | – | inhibition | 48.6% |
| NS(=O)(=O)c1ccc(NC(=O)Nc2ccc(F)cc2)cc1 | HD-MB03 and Daoy medulloblastoma | cell viability, resazurin | – | 10 µM, 72 h, hypoxia | baseline: untreated | viability decrease | 10 to 15% |
| O=C(Cn1cc(COc2ccccc2-c2nc(Cc3ccccc3)no2)nn1)NNC(=S)Nc1ccccc1 | A549 | qPCR, item: mTOR | – | IC50, 24 h | baseline: untreated cancer cells | mRNA level | 0.31 ± 0.04 fold |
| O=C(NO)c1ccc(CNC(=O)c2cc(Cn3c4ccccc4c4ccccc43)on2)cc1 | BXPC-3 | cell growth or viability, MTS | – | 72 h | – | GI50 | 2.3 µM |
| CNC(=O)c1ccc(N2C(=S)N(c3ccc(C#N)c(C(F)(F)F)c3)C(=O)C2(C)C)cc1F | LNCaP | PSA expression, antagonist | – | 1 day, charcoal-stripped serum 3 days, together with: 1 nM DHT | – | Ki | 0.0308 µM |
| CN(C)c1ccc2cc(-c3c(Cl)cccc3Cl)c(N)nc2c1 | mouse fibroblasts | Western blot | conditioned medium | 500 nM, 24 h, unit not given | baseline: Col1A1 | secreted Par-4 level | 123 ± 1.6 |
| C(=NOCc1ccccc1)c1c(-c2ccccc2)[nH]c2ccccc12 | RAW264.7 | sulforhodamine B | – | 50 µM, 20 h | baseline: vehicle | viability | 59.2 ± 7.7% |
| CCn1c(=O)c(-c2cc(NC(=O)Nc3ccccc3)c(F)cc2Br)cc2cnc(NC)cc21 | HMC1 (KIT wild-type) | cell growth | – | – | – | GI50 | 0.26 µM |
| Nc1ccc(-c2cc3ccccc3[nH]2)cc1 | RAW264.7 | NO release, inhibitor, Griess | – | 50 µM, 20 h, LPS-stimulated | – | inhibition | 86.1% |
| CC(C)(C)OC(=O)Nc1ccc(-c2cc(C(=O)NCc3ccc(C(=O)NO)cc3)no2)cc1 | BXPC-3 | cell growth or viability, MTS | – | 72 h | – | GI50 | 8 µM |
